Results pooled from the literature.
Every numbered part comes from another study and shows a few of its results, in no order.
UniProt Q9UK32, sequence (whole entry, looked up): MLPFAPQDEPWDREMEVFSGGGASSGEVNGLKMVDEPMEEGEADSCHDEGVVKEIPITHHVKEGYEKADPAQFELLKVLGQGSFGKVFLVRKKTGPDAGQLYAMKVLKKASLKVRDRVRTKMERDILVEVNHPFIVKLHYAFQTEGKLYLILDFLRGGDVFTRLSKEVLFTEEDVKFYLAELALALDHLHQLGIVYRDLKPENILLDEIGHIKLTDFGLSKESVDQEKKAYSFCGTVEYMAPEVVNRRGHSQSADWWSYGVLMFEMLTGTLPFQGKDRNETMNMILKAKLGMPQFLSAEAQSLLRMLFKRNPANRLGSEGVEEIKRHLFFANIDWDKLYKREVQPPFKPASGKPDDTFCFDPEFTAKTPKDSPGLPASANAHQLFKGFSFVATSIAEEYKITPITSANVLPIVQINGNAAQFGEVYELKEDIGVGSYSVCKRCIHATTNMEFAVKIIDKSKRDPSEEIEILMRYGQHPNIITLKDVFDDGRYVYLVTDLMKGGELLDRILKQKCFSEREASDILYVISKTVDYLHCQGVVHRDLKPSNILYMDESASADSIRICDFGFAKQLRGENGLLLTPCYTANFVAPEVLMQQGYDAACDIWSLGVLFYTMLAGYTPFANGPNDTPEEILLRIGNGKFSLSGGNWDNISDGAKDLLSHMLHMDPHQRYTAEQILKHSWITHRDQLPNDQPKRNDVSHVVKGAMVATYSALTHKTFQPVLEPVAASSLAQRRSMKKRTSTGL

Series 1 — method: RNA Bind-n-Seq; form: RNA; matrix: in vitro; concentration: 20 nM; setting: 6-mer, flanks averaged, single round; added: 150 mM KCl; relative to: input library; direction: higher = stronger binding
Target: TAR DNA-binding protein 43, full length, His tag (TARDBP, Homo sapiens, UniProt Q13148, residues 1-414)
| Sequence | 6-mer enrichment (R) |
| --- | --- |
| CAUUCU | 0.551 |
| CCUUUA | 0.601 |
| ACAGGG | 2.37 |
| CGAACA | 0.656 |
| CCCUGC | 0.669 |
| CUCCGA | 0.617 |
| CGUAGA | 0.807 |
| AAAAUG | 0.684 |

Series 2 — method: protein-binding microarray; form: double-stranded DNA, one strand shown; matrix: in vitro; concentration: 940 nM top; setting: 60-bp whole probe; added: salmon DNA 0.4 mg/ml; relative to: random background probes; direction: higher = stronger binding; constant ends, left off below: GCCTAGCAC … GTCTTGATTCGCTTGACGCTGCTG
Target: Interferon regulatory factor 5, full length, phosphomimetic (IRF5, Homo sapiens, UniProt Q13568-2, residues 1-514, S451D/S453D/S456D/S462D)
| Sequence | fitted relative affinity |
| --- | --- |
| AGATGAAAAGTGAAGCCTAGGTGCTAG | -0.803 z-score |
| GACGAACTAAGTCTCGAGACGTGCTAG | 0.51 z-score |
| GACTGACTGGACACTGGGGACGTGCTA | -0.397 z-score |
| TTAGGTATCGGGTTTCCGTTAGTGCTA | 6.13 z-score |
| TTAGGTTTCGGTTCCGGTAAGTGCTAG | 15.5 z-score |
| TTAGAACTGCGGTATCGATTAGTGCTA | 2.86 z-score |
| TCAGCCCTCCCTGTGGGACTGTGCTAG | -0.614 z-score |
| GACGGTATCCTACTGCTTACGTGCTAG | -0.0278 z-score |

Series 3 — method: aptamer microarray, sandwich; form: DNA with 2'F-ANA; matrix: in vitro; concentration: 200 nM; added: Cy3 exosite-II aptamer, 400 nM; direction: higher = stronger binding; sequence: GGTTGGTGTGGTTGG
Target: Prothrombin, mature alpha-thrombin (F2, Homo sapiens, UniProt P00734)
Setting: whole 15-mer aptamer, many near background
| Modification | mean fluorescence intensity [a.u.] |
| --- | --- |
| 2'F-ANA at 4 6 7 9 10 12 | 107 |
| 2'F-ANA at 1 2 4 5 8 9 10 11 12 15 | 53.7 |
| 2'F-ANA at 2 4 6 8 9 11 12 13 | 279 |
| 2'F-ANA at 2 7 8 9 10 11 13 14 15 | 77.8 |
| 2'F-ANA at 1 2 3 4 6 8 11 13 14 | 62.2 |
| 2'F-ANA at 1 3 5 8 13 | 57.9 |
| 2'F-ANA at 2 3 7 9 10 12 13 | 420 |
| 2'F-ANA at 2 5 6 11 13 | 55.2 |

Further values, each from its own experiment
| Compound | target | assay | conditions | scale | quantity | result |
| --- | --- | --- | --- | --- | --- | --- |
| CN([C@@H](Cc1ccc(OS(=O)(=O)c2cccc3cnccc23)cc1)C(=O)N1CCN(c2ccccc2)CC1)S(=O)(=O)c1cccc2cnccc12 | Ribosomal protein S6 kinase alpha-6 (RPS6KA6, Homo sapiens, UniProt Q9UK32) | enzyme activity, inhibitor | 0.5 µM | relative to: control | remaining activity | 100% |
